Published values from different studies.
A part holds a random share of what one study measured. Several values in a cell are separate wells, animals, samples, runs or records.
Sequence of UniProt Q9NYL2 (whole entry, looked up): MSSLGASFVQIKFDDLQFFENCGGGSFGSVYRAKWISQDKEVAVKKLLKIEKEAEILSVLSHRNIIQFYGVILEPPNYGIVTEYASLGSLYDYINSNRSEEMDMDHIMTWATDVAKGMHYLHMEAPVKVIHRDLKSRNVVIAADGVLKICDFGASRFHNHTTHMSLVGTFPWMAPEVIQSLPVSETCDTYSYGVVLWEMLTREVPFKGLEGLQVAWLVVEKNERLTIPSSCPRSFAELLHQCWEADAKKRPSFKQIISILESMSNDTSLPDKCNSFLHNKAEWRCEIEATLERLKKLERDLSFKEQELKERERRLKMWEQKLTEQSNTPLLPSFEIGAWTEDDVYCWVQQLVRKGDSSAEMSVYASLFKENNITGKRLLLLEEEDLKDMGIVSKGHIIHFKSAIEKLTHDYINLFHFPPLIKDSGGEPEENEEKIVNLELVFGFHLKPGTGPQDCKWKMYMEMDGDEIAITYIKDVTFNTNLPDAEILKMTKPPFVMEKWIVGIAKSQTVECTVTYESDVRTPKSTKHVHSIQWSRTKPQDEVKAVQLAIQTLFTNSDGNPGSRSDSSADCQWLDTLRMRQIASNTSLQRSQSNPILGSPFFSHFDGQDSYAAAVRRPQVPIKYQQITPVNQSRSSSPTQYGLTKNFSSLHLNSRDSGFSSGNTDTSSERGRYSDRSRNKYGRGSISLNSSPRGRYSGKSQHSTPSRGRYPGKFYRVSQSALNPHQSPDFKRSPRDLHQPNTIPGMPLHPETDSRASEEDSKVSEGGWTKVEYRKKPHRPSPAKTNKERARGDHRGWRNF
Sequence of UniProt Q04759 (whole entry, looked up): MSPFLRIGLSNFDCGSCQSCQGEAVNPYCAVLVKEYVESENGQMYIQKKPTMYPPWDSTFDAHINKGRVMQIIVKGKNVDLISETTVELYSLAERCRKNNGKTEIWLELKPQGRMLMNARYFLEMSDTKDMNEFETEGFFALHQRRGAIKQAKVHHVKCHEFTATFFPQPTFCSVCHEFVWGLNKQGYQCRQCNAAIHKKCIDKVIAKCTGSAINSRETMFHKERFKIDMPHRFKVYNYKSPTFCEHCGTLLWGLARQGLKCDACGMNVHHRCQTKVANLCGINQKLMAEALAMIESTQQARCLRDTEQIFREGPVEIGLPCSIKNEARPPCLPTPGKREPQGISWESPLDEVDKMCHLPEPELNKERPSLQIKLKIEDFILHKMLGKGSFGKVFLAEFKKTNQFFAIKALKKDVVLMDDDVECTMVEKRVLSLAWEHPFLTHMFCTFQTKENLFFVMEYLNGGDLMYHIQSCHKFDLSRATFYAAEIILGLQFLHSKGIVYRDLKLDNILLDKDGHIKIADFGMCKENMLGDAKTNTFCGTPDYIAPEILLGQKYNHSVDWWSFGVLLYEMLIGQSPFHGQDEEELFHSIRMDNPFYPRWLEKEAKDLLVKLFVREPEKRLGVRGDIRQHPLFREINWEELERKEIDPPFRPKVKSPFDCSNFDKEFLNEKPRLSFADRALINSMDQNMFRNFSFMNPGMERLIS
Sequence of UniProt P42680 (whole entry, looked up): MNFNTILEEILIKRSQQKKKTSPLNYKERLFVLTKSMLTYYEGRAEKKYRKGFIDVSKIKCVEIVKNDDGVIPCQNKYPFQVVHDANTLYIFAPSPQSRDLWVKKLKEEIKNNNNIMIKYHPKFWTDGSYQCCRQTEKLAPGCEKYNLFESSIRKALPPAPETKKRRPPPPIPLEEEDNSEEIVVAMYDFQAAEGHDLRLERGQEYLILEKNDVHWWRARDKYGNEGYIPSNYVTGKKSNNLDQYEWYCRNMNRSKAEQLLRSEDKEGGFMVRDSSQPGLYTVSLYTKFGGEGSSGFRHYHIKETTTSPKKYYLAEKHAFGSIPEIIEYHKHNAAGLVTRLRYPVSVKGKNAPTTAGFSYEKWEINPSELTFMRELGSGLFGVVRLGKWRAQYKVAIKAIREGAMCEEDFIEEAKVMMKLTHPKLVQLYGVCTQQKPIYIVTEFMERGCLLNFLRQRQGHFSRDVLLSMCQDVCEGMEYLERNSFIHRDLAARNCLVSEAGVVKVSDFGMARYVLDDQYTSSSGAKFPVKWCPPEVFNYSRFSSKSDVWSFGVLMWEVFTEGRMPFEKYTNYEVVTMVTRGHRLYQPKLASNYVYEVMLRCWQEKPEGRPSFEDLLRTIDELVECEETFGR
Sequence of UniProt Q9HBY8 (whole entry, looked up): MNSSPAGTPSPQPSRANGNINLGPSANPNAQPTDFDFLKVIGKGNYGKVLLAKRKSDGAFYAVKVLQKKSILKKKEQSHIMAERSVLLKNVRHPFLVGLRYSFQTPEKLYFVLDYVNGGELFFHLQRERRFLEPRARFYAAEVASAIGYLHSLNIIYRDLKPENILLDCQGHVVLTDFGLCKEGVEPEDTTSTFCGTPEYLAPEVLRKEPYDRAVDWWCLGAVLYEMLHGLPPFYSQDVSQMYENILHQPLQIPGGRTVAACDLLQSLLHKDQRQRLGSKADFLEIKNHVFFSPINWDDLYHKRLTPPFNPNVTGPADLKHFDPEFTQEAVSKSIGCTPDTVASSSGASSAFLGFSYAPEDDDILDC
Sequence of UniProt O15075 (whole entry, looked up): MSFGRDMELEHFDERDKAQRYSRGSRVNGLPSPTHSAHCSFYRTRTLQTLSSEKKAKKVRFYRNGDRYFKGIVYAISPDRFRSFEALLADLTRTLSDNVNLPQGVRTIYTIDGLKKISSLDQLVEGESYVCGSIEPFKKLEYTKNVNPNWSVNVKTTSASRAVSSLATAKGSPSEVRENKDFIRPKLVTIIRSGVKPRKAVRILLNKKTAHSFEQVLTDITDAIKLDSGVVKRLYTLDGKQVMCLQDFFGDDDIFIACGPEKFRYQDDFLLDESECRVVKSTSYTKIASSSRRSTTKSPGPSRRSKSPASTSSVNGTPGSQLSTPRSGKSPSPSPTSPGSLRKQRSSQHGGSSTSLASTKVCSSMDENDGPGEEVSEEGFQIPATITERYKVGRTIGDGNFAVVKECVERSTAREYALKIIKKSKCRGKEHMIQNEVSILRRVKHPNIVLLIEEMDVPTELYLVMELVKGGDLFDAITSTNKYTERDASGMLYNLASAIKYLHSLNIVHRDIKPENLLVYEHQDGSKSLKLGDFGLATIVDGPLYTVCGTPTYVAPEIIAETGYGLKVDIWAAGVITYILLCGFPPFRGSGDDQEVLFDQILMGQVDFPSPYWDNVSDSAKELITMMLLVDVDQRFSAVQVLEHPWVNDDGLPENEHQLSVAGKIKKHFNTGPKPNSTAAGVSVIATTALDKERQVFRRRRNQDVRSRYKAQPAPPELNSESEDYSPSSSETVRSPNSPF
Sequence of UniProt Q96SB4 (whole entry, looked up): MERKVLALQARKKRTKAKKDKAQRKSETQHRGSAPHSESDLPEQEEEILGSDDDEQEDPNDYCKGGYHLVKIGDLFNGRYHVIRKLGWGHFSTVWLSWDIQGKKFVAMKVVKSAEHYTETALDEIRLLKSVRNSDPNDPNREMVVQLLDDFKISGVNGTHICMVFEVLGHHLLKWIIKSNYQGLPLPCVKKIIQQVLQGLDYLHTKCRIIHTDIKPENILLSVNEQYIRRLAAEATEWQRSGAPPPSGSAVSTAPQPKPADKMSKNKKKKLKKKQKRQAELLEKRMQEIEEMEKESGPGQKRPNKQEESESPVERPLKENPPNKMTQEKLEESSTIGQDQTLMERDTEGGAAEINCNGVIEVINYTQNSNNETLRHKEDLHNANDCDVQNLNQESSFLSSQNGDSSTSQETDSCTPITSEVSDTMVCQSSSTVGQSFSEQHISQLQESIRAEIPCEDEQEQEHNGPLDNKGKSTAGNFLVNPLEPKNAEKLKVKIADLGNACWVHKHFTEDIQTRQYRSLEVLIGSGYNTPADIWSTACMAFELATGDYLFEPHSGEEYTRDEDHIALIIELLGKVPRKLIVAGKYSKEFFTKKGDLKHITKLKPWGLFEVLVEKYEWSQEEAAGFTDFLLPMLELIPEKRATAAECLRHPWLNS
Sequence of UniProt P49674 (whole entry, looked up): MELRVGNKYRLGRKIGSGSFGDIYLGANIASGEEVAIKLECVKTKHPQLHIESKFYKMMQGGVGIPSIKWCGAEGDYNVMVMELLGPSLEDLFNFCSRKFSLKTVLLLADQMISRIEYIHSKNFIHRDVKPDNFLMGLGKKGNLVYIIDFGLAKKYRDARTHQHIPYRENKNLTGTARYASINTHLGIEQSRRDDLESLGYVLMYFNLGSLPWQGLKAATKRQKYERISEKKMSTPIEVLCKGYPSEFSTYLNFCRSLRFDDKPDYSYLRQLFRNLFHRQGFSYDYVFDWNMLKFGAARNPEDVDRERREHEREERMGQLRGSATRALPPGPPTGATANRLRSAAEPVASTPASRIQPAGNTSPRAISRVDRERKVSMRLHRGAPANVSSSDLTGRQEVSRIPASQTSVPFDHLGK
Sequence of UniProt Q8TBX8 (whole entry, looked up): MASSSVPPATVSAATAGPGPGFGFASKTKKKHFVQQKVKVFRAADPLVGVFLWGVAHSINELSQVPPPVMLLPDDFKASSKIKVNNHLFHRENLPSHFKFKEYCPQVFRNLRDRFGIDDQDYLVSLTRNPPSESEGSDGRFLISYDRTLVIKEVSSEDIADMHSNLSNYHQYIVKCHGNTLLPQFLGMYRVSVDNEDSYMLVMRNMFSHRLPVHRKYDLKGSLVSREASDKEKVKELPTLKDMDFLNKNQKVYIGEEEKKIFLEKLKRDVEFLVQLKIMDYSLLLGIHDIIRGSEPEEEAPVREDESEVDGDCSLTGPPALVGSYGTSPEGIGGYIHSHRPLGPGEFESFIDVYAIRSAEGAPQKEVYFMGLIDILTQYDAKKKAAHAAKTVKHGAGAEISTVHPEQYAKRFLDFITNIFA

Study 1
Structure (SMILES): N#Cc1ccc(Nc2ccc3[nH]c(=O)[nH]c3c2)c(Cl)c1
Read-out: cell-free assay
Technique: competition with immobilised ligand
Concentration: 1 µM
target | remaining binding [%]
MARK1 (Homo sapiens, UniProt Q9P0L2) | 90
GRK1 (Homo sapiens, UniProt Q15835) | 100
PRKCQ (Homo sapiens, UniProt Q04759) | 90
DCLK1 (Homo sapiens, UniProt O15075) | 84
MAPK1 (Homo sapiens, UniProt P28482) | 100
DYRK2 (Homo sapiens, UniProt Q92630) | 85
EPHA4 (Homo sapiens, UniProt P54764) | 100
TRPM6 (Homo sapiens, UniProt Q9BX84) | 100
NEK2 (Homo sapiens, UniProt P51955) | 93
STK32B (Homo sapiens, UniProt Q9NY57) | 92
TLK2 (Homo sapiens, UniProt Q86UE8) | 96
PLK4 (Homo sapiens, UniProt O00444) | 87
LRRK2 (Homo sapiens, UniProt Q5S007) | 96
PIK3CA (Homo sapiens, UniProt P42336, M1043I) | 100
PDGFRA (Homo sapiens, UniProt P16234) | 100
ALK (Homo sapiens, UniProt Q9UM73, L1196M) | 100
PIP4K2C (Homo sapiens, UniProt Q8TBX8) | 100
MAP3K20 (Homo sapiens, UniProt Q9NYL2) | 100
PRKAA1 (Homo sapiens, UniProt Q13131) | 100
MAP3K12 (Homo sapiens, UniProt Q12852) | 100
eIF-2-alpha kinase GCN2, C-terminal kinase domain (EIF2AK4, Homo sapiens, UniProt Q9P2K8, S808G) | 93
COQ8A (Homo sapiens, UniProt Q8NI60) | 100
Ribosomal protein S6 kinase alpha-6, N-terminal kinase domain (RPS6KA6, Homo sapiens, UniProt Q9UK32) | 84
EIF2AK1 (Homo sapiens, UniProt Q9BQI3) | 100
Insulin receptor (INSR, Homo sapiens, UniProt P06213) | 95

Study 2
Compound: CNc1cc2c(Nc3cccc(Br)c3)ncnc2cn1
Read-out: enzyme activity
Mode: inhibitor
Concentration: 0.5 µM
Relative to: control
target | remaining activity [%]
CAMK1 (Homo sapiens, UniProt Q14012) | 92.3
EPHA6 (Homo sapiens, UniProt Q9UF33) | 70
SRPK1 (Homo sapiens, UniProt Q96SB4) | 90.7
CLK2 (Homo sapiens, UniProt P49760) | 88.3
RPS6KA3 (Homo sapiens, UniProt P51812) | 86.6
JAK1 (Homo sapiens, UniProt P23458) | 79.9
IGF1R (Homo sapiens, UniProt P08069) | 115
Cyclin-dependent kinase 2, with cyclin E (CDK2, Homo sapiens, UniProt P24941) | 88.6
SGK2 (Homo sapiens, UniProt Q9HBY8) | 96.6
CLK1 (Homo sapiens, UniProt P49759) | 106
EPHA2 (Homo sapiens, UniProt P29317) | 95.3
CSNK1E (Homo sapiens, UniProt P49674) | 84.8
MAP3K20 (Homo sapiens, UniProt Q9NYL2) | 82.3
FLT1 (Homo sapiens, UniProt P17948) | 83.5
CSNK1D (Homo sapiens, UniProt P48730) | 98.7
MUSK (Homo sapiens, UniProt O15146) | 81.3
TEC (Homo sapiens, UniProt P42680) | 109
TYRO3 (Homo sapiens, UniProt Q06418) | 98.8
PAK6 (Homo sapiens, UniProt Q9NQU5) | 96.6
PAK1 (Homo sapiens, UniProt Q13153) | 94.9
SIK2 (Homo sapiens, UniProt Q9H0K1) | 98.3
CAMKK1 (Homo sapiens, UniProt Q8N5S9) | 92.6
PRKCQ (Homo sapiens, UniProt Q04759) | 110

Study 3
Compound: C[C@@H]1CN(c2ccc(-c3cc(C(=O)NCCOCCOCCOCCOCCNC(=O)Cn4cc(-c5[nH]cc(C(=O)N[C@@H](CC(N)=O)c6ccc(F)c(Cl)c6)c5-c5ccc(Cl)cc5F)cn4)ccc3F)cc2NC(=O)c2c[nH]c(=O)cc2C(F)(F)F)C[C@H](C)N1C
Technique: ATPlite
cell line | system | conditions | scale | viability
MV4-11 | – | 2.15 µM, 5 days | relative to: DMSO | 53.9% and 33% and 65.3% and 54.6%
MV4-11 expressing HiBiT-WDR5 | RPMI with 10% FBS | 2 nM, 24 h | – | 145% and 92.5% and 108%
MV4-11 expressing HiBiT-WDR5 | RPMI with 10% FBS | 3800 nM, 24 h | – | 101% and 109% and 78.1%
MV4-11 expressing HiBiT-WDR5 | RPMI with 10% FBS | 10000 nM, 24 h | – | 94.2% and 88.2% and 117%
MV4-11 expressing HiBiT-WDR5 | RPMI with 10% FBS | 1510 nM, 24 h | – | 108% and 87.3% and 97.2%

Mixed results
Compound | cell line | test | conditions | scale | endpoint | result
CC(C)(C)c1cnc(CSc2cnc(NC(=O)C3CCN(CCCCCSc4cccc5c4CN(C4CCC(=O)NC4=O)C5=O)CC3)s2)o1 (stereo not drawn) | HuT78 | trypan blue | concentration not given, day 0 | relative to: untreated control | relative cell number | 0.846 and 1.05 and 0.898

Excerpt of the above (study 2):
target | remaining activity [%]
CAMK1 (Homo sapiens, UniProt Q14012) | 92.3
EPHA6 (Homo sapiens, UniProt Q9UF33) | 70
SRPK1 (Homo sapiens, UniProt Q96SB4) | 90.7
CLK2 (Homo sapiens, UniProt P49760) | 88.3
RPS6KA3 (Homo sapiens, UniProt P51812) | 86.6
